{"data": "Experimental data from different studies", "DRD1": "D(1A) dopamine receptor (DRD1, Homo sapiens, UniProt P21728)", "Luciferin 4-monooxygenase": "Luciferin 4-monooxygenase (Photinus pyralis, UniProt P08659)", "Palmitoyl-protein thioesterase 1": "Palmitoyl-protein thioesterase 1 (Homo sapiens, UniProt P50897)", "note": "Lines come from different studies, so protocols differ. Numbers after ± are the reported error.", "sequence of UniProt P21728 (whole entry, looked up)": "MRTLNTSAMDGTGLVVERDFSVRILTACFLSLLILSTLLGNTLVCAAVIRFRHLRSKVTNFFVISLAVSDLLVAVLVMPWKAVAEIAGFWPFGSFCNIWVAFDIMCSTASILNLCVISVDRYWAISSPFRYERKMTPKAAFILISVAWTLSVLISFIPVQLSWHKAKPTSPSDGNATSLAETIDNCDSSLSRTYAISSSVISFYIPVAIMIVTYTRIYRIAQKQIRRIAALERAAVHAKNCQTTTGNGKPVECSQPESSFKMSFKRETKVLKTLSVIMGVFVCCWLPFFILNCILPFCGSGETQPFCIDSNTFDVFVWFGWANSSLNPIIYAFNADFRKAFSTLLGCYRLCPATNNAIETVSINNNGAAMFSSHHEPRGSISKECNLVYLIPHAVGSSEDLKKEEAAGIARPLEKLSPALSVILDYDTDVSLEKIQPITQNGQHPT", "sequence of UniProt P50897 (whole entry, looked up)": "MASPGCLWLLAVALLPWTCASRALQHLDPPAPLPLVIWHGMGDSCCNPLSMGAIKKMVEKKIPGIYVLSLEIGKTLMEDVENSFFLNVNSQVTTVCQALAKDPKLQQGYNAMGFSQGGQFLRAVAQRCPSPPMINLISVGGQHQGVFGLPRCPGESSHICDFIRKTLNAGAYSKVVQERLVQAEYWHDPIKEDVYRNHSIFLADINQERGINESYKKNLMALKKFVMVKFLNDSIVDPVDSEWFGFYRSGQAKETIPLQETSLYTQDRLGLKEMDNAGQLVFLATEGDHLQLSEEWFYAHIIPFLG", "sequence of UniProt P08659 (whole entry, looked up)": "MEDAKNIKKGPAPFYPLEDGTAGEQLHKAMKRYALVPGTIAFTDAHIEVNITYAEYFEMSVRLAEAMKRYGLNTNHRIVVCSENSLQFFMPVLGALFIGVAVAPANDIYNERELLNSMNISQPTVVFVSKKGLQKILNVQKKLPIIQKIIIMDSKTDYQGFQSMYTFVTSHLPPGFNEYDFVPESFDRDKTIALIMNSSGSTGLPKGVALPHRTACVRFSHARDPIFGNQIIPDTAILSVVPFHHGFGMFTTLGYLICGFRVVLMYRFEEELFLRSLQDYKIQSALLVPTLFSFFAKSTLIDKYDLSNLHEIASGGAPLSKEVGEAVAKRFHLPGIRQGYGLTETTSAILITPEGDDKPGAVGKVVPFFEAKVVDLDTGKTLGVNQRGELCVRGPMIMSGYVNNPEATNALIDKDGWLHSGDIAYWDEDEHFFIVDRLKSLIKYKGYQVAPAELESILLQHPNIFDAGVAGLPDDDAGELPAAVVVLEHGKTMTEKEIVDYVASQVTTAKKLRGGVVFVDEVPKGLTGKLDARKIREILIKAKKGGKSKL", "sequence of UniProt Q9Y2U5 (whole entry, looked up)": "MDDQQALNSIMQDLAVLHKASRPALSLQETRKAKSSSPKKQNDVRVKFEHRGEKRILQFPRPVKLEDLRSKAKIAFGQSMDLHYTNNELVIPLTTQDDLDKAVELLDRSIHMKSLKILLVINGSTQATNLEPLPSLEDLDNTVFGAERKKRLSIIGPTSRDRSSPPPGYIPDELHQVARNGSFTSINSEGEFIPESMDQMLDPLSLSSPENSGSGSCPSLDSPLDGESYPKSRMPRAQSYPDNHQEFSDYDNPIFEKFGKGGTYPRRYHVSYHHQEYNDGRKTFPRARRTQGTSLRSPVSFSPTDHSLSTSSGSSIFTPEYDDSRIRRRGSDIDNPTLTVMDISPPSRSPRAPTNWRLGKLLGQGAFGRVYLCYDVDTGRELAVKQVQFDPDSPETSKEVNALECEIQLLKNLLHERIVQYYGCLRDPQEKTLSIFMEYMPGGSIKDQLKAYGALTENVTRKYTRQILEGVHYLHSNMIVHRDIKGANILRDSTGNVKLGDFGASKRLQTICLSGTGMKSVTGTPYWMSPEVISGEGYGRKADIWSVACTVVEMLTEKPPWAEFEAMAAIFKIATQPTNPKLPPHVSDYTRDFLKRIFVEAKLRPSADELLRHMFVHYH", "sequence of UniProt P40261 (whole entry, looked up)": "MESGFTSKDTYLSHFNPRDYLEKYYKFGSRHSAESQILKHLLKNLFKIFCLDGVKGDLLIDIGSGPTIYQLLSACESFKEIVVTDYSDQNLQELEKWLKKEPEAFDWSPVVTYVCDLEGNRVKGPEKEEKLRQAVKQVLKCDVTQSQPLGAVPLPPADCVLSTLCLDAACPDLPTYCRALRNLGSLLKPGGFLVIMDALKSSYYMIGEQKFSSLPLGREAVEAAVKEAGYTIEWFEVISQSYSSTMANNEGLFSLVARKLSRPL", "sequence of UniProt Q8IWT6 (whole entry, unmodified, looked up)": "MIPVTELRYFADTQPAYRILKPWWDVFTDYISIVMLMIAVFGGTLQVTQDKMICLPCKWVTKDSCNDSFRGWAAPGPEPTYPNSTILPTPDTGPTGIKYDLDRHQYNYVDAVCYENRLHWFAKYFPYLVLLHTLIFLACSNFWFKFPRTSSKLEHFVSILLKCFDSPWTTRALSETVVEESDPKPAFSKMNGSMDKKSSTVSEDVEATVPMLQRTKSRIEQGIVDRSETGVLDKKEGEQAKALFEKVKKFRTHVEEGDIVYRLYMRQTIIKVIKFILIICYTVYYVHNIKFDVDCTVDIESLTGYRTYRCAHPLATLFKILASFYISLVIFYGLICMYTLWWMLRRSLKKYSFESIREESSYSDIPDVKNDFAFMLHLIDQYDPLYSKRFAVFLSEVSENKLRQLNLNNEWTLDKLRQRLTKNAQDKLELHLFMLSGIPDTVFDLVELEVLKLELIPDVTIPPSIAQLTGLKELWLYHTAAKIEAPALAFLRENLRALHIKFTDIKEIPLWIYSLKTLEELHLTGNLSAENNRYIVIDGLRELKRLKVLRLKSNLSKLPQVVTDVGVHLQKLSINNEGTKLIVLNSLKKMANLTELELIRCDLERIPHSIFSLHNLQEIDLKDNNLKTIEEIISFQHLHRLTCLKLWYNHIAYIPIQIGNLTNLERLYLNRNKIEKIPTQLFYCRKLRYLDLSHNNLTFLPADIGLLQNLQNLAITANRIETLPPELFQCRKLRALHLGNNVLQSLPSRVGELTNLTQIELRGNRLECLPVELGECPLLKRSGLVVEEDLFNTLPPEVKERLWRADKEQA", "sequence of UniProt P08253 (whole entry, looked up)": "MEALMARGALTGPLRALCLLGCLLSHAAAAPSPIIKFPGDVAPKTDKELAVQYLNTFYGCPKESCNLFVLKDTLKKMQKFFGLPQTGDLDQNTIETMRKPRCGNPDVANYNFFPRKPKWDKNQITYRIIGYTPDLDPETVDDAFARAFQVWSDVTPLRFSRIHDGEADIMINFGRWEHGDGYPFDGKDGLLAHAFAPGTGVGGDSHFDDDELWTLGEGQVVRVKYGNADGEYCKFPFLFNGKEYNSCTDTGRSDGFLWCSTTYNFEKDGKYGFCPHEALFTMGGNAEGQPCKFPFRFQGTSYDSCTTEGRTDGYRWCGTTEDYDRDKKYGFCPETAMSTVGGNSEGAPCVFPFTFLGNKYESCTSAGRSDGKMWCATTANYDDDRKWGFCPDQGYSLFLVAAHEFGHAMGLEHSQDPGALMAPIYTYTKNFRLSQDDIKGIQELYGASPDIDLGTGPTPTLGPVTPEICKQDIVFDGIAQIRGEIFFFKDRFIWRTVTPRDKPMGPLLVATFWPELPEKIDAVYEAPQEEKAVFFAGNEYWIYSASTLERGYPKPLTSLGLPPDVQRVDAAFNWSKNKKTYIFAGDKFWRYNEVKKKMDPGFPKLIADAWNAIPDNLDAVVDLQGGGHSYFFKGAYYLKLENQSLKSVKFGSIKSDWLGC", "sequence of UniProt P36897 (whole entry, unmodified, looked up)": "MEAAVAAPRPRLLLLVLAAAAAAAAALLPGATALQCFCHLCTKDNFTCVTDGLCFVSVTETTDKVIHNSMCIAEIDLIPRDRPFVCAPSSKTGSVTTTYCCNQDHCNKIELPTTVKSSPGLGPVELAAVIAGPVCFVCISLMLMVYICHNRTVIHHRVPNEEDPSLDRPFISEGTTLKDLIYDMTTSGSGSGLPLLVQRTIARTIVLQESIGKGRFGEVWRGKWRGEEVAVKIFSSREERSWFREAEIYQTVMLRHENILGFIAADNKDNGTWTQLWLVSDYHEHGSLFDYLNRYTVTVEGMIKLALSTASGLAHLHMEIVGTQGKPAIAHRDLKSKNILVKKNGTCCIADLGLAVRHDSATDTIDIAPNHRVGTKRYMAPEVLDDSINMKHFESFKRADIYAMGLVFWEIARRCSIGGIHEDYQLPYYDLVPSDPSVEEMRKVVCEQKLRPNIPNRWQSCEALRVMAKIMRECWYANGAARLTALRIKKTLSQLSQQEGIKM", "sequence of UniProt P07237 (whole entry, looked up)": "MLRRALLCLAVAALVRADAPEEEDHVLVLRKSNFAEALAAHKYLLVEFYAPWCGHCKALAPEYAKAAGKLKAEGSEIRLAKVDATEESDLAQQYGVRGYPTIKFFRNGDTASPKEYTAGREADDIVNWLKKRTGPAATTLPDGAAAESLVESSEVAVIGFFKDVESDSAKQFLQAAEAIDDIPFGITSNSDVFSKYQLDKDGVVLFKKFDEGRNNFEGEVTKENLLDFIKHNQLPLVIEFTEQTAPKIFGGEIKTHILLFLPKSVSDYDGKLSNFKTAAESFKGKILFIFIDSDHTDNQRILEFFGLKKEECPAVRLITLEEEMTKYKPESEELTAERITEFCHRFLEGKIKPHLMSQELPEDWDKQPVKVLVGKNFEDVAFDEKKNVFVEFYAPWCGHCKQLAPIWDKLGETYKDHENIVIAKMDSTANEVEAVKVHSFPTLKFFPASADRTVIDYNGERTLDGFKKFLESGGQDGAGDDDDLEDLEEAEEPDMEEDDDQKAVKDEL"}
{"Structure (SMILES)": "CCN(O)N=Nc1ccc(S(=O)(=O)Nc2nccs2)cc1", "target": "α-glucosidase, rat intestine", "test": "enzyme activity", "setting": "300 µg/mL, together with: 4-nitrophenyl α-D-glucopyranoside", "inhibition": "62.5 ± 1.38%"}
{"Structure (SMILES)": "COc1ccc(S(=O)(=O)N(CC(=O)NO)CC(C)C)cc1", "target": "72 kDa type IV collagenase (MMP2, Homo sapiens, UniProt P08253)", "test": "fluorometric", "setting": "0.01 ng/mL", "inhibition": "35%"}
{"Structure (SMILES)": "Cc1cc(NS(=O)(=O)c2ccc(N=NN(C)O)cc2)no1", "target": "α-glucosidase, rat intestine", "test": "enzyme activity", "setting": "120 µg/mL, together with: 4-nitrophenyl α-D-glucopyranoside", "inhibition": "37.5 ± 1.38%"}
{"Structure (SMILES)": "O=C1c2ccccc2CCN1CCCCN1CCN(c2cccc(Cl)c2Cl)CC1", "target": "DRD1", "test": "radioligand binding", "setting": "concentration not given, together with: [3H]SCH23390", "inhibition": "99.8%"}
{"Structure (SMILES)": "CC(C)(NC(=O)O[C@@H]1CN2CCC1CC2)c1csc(-c2ccc(F)cc2)n1", "target": "Nicotinamide N-methyltransferase (NNMT, Homo sapiens, UniProt P40261)", "test": "enzyme activity, inhibitor", "setting": "100 µM", "inhibition": "no inhibition"}
{"Structure (SMILES)": "O=C(CN1CCO[C@H](COc2cccc(Cl)c2)C1)N1CCc2ccccc21", "target": "DRD1", "test": "radioligand binding", "setting": "concentration not given, together with: [3H]SCH23390", "inhibition": "43.2%"}
{"Structure (SMILES)": "OC[C@H]1O[C@@H](Oc2ccccc2)[C@H](O)[C@@H](O)[C@H]1O", "target": "Adhesin FmlH, lectin domain (Escherichia coli, UniProt Q1RBS0)", "test": "binding to desialylated mucin, ELISA competition", "test system": "UPEC UTI89", "setting": "100 µM", "inhibition": "76.9 ± 0.4%"}
{"Structure (SMILES)": "Cc1ccc(N(O)N=Nc2ccc(S(=O)(=O)Nc3cc(C)on3)cc2)cc1", "target": "α-glucosidase, rat intestine", "test": "enzyme activity", "setting": "300 µg/mL, together with: 4-nitrophenyl α-D-glucopyranoside", "inhibition": "52.5 ± 0.09%"}
{"Structure (SMILES)": "COc1cc(C(=O)NS(=O)(=O)c2ccccc2C)ccc1Cc1cn(C)c2ccc(NC(=O)OC3CCCC3)cc12", "target": "LRRC8A/LRRC8C (Homo sapiens, UniProt Q8IWT6+Q8TDW0, L134K/L136K)", "test": "ion current, inhibitor, whole-cell patch clamp", "test system": "HCT116 LRRC8 knockout, transfected", "setting": "100 µM, +100 mV, mutant L134K/L136K", "inhibition": "88.1%"}
{"Structure (SMILES)": "COc1ccc(C(=O)N2CCc3onc(-c4cccc(F)c4)c3C2)cc1", "target": "Luciferin 4-monooxygenase", "test": "luciferase luminescence, inhibitor", "test system": "cell-free", "setting": "50 µM, counter-screen", "inhibition": "51.5%"}
{"Structure (SMILES)": "Cc1noc(NS(=O)(=O)c2ccc(N=NN(O)c3ccccc3)cc2)c1C", "target": "α-glucosidase, rat intestine", "test": "enzyme activity", "setting": "120 µg/mL, together with: 4-nitrophenyl α-D-glucopyranoside", "inhibition": "27.5 ± 0.097%"}
{"Structure (SMILES)": "C#Cc1cc(-c2cc(Nc3nc(N[C@@H](C)c4ccc(F)cn4)ncc3Cl)n[nH]2)ccc1C=O", "target": "TGF-beta receptor type-1 (TGFBR1, Homo sapiens, UniProt P36897, T204D)", "test": "enzyme activity, inhibitor", "setting": "0.2 µM", "inhibition": "17.8%"}
{"Structure (SMILES)": "CN(C)c1ccc2nc3ccc(=[N+](C)C)cc-3sc2c1", "target": "Palmitoyl-protein thioesterase 1", "test": "Spectrum Collection screen", "setting": "concentration not given, together with: substrate 20 µM", "inhibition": "60.9%"}
{"Structure (SMILES)": "O=C(CN1CCO[C@@H](COc2ccccn2)C1)N1CCc2ccccc21", "target": "5-hydroxytryptamine receptor 1E (HTR1E, Homo sapiens, UniProt P28566)", "test": "radioligand binding", "setting": "concentration not given, together with: [3H]5-HT", "inhibition": "-4.6%"}
{"Structure (SMILES)": "CC[C@@H]1[C@H](F)C(=O)N[C@@H]1COc1nccc2cc(C(N)=O)c(OC)cc12", "target": "Mitogen-activated protein kinase kinase kinase 2 (MAP3K2, Homo sapiens, UniProt Q9Y2U5)", "test": "ATP-site probe binding, ActivX profiling", "test system": "THP-1 cell lysate", "setting": "0.04 mM, Lys1 site", "inhibition": "-0.527%"}
{"Structure (SMILES)": "CC(=O)Nc1ncc([N+](=O)[O-])s1", "target": "Palmitoyl-protein thioesterase 1", "test": "Spectrum Collection screen", "setting": "concentration not given, together with: substrate 20 µM", "inhibition": "65.1%"}
{"Structure (SMILES)": "Cc1ccn(CCn2ncc(N(C)C)cc2=O)n1", "target": "Luciferin 4-monooxygenase", "test": "luciferase luminescence, inhibitor", "test system": "cell-free", "setting": "50 µM, counter-screen", "inhibition": "20.5%"}
{"Structure (SMILES)": "CCCOc1cc2c(cc1O)[C@@H]1Cc3c(Br)cc(O)c(OCC(F)(F)F)c3CN1CC2", "target": "DRD1", "test": "cAMP level, antagonist, TR-FRET", "test system": "U2OS expressing human D1R", "setting": "concentration not given, together with: dopamine 10 nM", "inhibition": "91 ± 2%"}
{"Structure (SMILES)": "O=C(OC[C@H]1O[C@@H](OC(=O)c2cc(O)c(O)c(O)c2)[C@H](OC(=O)c2cc(O)c(O)c(O)c2)[C@@H](OC(=O)c2cc(O)c(O)c(O)c2)[C@@H]1OC(=O)c1cc(O)c(O)c(O)c1)c1cc(O)c(O)c(O)c1", "target": "Protein disulfide-isomerase (P4HB, Homo sapiens, UniProt P07237)", "test": "di-eosin-GSSG reductase activity", "setting": "20 µM, 15 min", "inhibition": "inhibited"}
{"note": "A few entries again:"}
{"Structure (SMILES)": "CC[C@@H]1[C@H](F)C(=O)N[C@@H]1COc1nccc2cc(C(N)=O)c(OC)cc12", "target": "Mitogen-activated protein kinase kinase kinase 2 (MAP3K2, Homo sapiens, UniProt Q9Y2U5)", "test": "ATP-site probe binding, ActivX profiling", "test system": "THP-1 cell lysate", "setting": "0.04 mM, Lys1 site", "inhibition": "-0.527%"}
{"Structure (SMILES)": "CC(=O)Nc1ncc([N+](=O)[O-])s1", "target": "Palmitoyl-protein thioesterase 1", "test": "Spectrum Collection screen", "setting": "concentration not given, together with: substrate 20 µM", "inhibition": "65.1%"}
{"Structure (SMILES)": "Cc1ccn(CCn2ncc(N(C)C)cc2=O)n1", "target": "Luciferin 4-monooxygenase", "test": "luciferase luminescence, inhibitor", "test system": "cell-free", "setting": "50 µM, counter-screen", "inhibition": "20.5%"}
